# Measurements pooled from the literature.
# Each numbered part is a random draw from the data of one study; scales do not carry over between parts. Several values in a cell are separate wells, animals, samples, runs or records.
# UniProt P42336, sequence (whole entry, unmodified, looked up): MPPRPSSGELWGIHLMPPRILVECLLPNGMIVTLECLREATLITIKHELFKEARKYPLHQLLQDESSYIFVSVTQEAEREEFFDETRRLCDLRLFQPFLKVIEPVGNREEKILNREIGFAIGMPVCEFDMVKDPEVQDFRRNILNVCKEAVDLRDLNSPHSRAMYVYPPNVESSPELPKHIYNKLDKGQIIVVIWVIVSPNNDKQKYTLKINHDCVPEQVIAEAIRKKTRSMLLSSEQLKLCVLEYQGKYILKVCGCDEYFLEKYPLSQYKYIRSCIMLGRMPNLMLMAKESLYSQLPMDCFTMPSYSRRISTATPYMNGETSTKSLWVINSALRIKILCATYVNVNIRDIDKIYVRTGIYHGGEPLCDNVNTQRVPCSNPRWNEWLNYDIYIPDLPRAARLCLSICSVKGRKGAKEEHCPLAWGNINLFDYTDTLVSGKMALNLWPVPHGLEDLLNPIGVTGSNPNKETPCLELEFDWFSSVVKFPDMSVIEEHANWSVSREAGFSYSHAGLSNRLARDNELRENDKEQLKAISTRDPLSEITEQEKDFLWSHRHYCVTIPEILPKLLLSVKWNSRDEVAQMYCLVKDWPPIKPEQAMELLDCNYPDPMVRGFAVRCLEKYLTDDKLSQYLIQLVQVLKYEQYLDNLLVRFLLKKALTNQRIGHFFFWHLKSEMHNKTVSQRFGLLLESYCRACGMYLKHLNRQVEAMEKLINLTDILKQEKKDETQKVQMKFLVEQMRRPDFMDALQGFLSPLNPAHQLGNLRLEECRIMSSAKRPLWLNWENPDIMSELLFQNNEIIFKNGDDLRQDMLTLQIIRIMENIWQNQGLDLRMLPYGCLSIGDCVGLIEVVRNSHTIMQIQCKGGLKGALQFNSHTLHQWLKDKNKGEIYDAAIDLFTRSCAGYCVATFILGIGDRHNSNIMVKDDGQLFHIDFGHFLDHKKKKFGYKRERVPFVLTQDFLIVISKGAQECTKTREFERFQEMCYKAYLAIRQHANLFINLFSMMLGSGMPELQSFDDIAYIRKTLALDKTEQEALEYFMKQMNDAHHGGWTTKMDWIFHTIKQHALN
# UniProt P10721, sequence (whole entry, unmodified, looked up): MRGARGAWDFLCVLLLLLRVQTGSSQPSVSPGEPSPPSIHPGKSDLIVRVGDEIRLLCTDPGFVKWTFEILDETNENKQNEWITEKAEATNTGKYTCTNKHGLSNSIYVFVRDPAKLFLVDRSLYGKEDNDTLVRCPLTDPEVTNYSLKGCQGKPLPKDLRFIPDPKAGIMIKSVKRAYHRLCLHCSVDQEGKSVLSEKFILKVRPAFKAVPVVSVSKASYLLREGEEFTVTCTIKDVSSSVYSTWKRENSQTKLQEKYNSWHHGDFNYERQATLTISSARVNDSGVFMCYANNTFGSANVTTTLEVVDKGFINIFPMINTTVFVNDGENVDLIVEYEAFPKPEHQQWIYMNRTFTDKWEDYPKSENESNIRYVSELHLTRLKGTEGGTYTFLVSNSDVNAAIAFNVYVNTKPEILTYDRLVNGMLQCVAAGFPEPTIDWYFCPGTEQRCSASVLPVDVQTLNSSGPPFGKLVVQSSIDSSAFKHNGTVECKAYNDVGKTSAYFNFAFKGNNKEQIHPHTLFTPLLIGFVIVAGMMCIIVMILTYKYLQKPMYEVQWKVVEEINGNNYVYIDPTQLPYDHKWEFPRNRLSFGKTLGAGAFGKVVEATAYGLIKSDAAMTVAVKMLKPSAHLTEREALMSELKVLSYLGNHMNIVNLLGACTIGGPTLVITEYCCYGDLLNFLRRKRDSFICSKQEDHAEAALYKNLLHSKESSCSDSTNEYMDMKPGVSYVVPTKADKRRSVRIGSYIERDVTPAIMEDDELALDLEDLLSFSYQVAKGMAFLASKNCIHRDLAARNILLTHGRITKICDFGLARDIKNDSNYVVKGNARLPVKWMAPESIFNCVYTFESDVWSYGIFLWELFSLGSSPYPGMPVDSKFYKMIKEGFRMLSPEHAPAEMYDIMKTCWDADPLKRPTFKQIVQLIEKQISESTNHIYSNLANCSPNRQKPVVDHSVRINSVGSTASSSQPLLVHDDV
# UniProt Q9UM73, sequence (whole entry, unmodified, looked up): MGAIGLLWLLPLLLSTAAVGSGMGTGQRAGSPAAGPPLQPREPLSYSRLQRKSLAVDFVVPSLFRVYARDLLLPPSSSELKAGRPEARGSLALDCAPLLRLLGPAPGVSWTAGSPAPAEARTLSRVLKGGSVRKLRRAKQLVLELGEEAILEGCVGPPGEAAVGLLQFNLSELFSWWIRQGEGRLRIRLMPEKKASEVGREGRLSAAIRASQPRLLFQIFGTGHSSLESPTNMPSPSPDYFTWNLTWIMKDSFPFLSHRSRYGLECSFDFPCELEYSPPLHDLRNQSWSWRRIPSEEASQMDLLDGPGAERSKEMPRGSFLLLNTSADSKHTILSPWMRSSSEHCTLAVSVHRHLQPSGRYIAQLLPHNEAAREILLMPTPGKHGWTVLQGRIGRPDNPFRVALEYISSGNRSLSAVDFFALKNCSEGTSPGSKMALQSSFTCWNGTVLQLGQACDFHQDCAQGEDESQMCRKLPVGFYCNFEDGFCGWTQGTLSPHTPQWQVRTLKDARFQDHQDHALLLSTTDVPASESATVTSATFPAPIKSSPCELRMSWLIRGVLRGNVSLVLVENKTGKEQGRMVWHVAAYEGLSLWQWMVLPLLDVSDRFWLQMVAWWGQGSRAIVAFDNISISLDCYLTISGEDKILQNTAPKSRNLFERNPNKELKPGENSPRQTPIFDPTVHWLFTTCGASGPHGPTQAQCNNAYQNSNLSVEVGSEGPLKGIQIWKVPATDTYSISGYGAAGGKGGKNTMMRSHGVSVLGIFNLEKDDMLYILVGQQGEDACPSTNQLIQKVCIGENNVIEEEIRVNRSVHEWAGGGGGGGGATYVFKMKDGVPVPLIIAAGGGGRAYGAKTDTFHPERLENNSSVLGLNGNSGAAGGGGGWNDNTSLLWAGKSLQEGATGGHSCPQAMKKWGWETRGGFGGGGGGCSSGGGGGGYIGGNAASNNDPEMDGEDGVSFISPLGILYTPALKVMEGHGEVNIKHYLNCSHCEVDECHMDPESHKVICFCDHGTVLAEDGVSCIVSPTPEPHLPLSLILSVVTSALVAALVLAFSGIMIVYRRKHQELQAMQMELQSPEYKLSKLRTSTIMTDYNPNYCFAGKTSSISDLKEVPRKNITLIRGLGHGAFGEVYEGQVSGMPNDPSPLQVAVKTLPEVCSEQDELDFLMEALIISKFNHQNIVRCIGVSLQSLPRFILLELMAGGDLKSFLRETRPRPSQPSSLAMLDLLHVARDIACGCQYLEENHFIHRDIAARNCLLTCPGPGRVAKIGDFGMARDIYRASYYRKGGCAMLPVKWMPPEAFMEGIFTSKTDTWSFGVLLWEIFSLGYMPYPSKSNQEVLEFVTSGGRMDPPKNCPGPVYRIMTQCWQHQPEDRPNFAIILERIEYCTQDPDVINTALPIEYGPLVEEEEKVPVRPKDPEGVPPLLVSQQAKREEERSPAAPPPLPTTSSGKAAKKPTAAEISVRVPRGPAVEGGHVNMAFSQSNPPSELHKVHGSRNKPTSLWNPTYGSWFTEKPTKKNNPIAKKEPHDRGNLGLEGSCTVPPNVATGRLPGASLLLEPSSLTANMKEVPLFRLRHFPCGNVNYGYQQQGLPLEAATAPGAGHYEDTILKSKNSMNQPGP
# UniProt P36897, sequence (whole entry, looked up): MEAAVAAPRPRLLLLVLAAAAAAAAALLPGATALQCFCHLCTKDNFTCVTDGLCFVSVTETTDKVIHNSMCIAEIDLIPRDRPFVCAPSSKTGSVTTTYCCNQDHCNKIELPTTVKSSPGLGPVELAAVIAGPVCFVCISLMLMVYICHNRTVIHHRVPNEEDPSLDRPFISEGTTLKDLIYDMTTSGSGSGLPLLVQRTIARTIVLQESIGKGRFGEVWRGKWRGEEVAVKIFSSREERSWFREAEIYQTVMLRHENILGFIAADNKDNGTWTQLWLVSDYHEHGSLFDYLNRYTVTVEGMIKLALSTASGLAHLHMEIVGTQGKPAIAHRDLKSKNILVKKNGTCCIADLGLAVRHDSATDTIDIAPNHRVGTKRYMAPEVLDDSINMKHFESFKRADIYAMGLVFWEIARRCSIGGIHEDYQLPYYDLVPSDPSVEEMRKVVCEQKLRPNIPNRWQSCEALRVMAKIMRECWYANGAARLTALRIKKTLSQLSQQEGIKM
# UniProt P28482, sequence (whole entry, looked up): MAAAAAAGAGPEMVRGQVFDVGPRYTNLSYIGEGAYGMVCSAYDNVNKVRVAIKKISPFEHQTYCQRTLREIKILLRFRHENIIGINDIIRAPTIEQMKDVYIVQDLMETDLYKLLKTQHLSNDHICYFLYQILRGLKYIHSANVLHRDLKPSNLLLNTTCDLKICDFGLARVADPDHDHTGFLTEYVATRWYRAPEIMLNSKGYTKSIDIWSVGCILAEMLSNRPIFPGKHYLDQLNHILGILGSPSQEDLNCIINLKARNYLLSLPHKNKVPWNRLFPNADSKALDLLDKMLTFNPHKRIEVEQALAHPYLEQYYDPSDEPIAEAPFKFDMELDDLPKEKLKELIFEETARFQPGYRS

# Set 1 — effect on: binding; concentration: 1 µM
# Compound: COc1ccc2[nH]c3c4[nH]c5ccc(OC)cc5c4c4c(c3c2c1)C(=O)NC4=O
target,assay,remaining binding
"IGF1R (Homo sapiens, UniProt P08069)",,97%
"MERTK (Homo sapiens, UniProt Q12866)",competition with immobilised ligand,19%
"TNIK (Homo sapiens, UniProt Q9UKE5)",competition with immobilised ligand,3%
"FYN (Homo sapiens, UniProt P06241)",competition with immobilised ligand,84%
"KIT (Homo sapiens, UniProt P10721, D816V)",,1.7%
"FGFR3 (Homo sapiens, UniProt P22607, G697C)",,100%
"TAOK2 (Homo sapiens, UniProt Q9UL54)",competition with immobilised ligand,96%
"FLT1 (Homo sapiens, UniProt P17948)",competition with immobilised ligand,79%

# Set 2 — concentration: 1 µM
# Compound: Cc1c(NC(=O)c2cc(C(N)=O)nc3cc(F)ccc23)c(C(F)(F)F)nn1Cc1ccc(C(C)(C)C)cc1
target,assay,remaining binding
"CDKL2 (Homo sapiens, UniProt Q92772)","cell-free assay, competition with immobilised ligand",100%
"CDC42BPG (Homo sapiens, UniProt Q6DT37)",competition binding,91%
"ALK (Homo sapiens, UniProt Q9UM73, L1196M)","cell-free assay, competition with immobilised ligand",83%
"MAP3K12 (Homo sapiens, UniProt Q12852)","cell-free assay, competition with immobilised ligand",100%
"MARK1 (Homo sapiens, UniProt Q9P0L2)","cell-free assay, competition with immobilised ligand",100%
"CDK18 (Homo sapiens, UniProt Q07002)","cell-free assay, competition with immobilised ligand",88%
"MAPK1 (Homo sapiens, UniProt P28482)","cell-free assay, competition with immobilised ligand",71%
"CAMK2G (Homo sapiens, UniProt Q13555)","cell-free assay, competition with immobilised ligand",82%
"PIK3CA (Homo sapiens, UniProt P42336, I800L)","cell-free assay, competition with immobilised ligand",100%
"NUAK1 (Homo sapiens, UniProt O60285)","cell-free assay, competition with immobilised ligand",94%
"TGFBR1 (Homo sapiens, UniProt P36897)","cell-free assay, competition with immobilised ligand",91%
"PIK3CA (Homo sapiens, UniProt P42336, M1043I)","cell-free assay, competition with immobilised ligand",80%
"PRKCE (Homo sapiens, UniProt Q02156)","cell-free assay, competition with immobilised ligand",67%
"KIT (Homo sapiens, UniProt P10721, V559D)","cell-free assay, competition with immobilised ligand",95%
"TESK1 (Homo sapiens, UniProt Q15569)","cell-free assay, competition with immobilised ligand",100%
"PRKCQ (Homo sapiens, UniProt Q04759)","cell-free assay, competition with immobilised ligand",91%
"ACVRL1 (Homo sapiens, UniProt P37023)","cell-free assay, competition with immobilised ligand",94%
"Tyrosine-protein kinase ABL1, non-phosphorylated (ABL1, Homo sapiens, UniProt P00519, F317I)","binding, competition with immobilised ligand",100%
"MAK (Homo sapiens, UniProt P20794)","cell-free assay, competition with immobilised ligand",85%
"CDKL3 (Homo sapiens, UniProt Q8IVW4)","cell-free assay, competition with immobilised ligand",87%
"ULK2 (Homo sapiens, UniProt Q8IYT8)","cell-free assay, competition with immobilised ligand",100%
"Insulin receptor (INSR, Homo sapiens, UniProt P06213)","cell-free assay, competition with immobilised ligand",100%
"GRK1 (Homo sapiens, UniProt Q15835)","cell-free assay, competition with immobilised ligand",83%
"eIF-2-alpha kinase GCN2, C-terminal kinase domain (EIF2AK4, Homo sapiens, UniProt Q9P2K8, S808G)","cell-free assay, competition with immobilised ligand",56%
"STK17A (Homo sapiens, UniProt Q9UEE5)","cell-free assay, competition with immobilised ligand",79%

# Set 3 — route: subcutaneous; time: 5 days
# Compound: CC(=O)N[C@@H](Cc1c[nH]c2ccccc12)C(=O)N[C@@H](CCC(=O)C=[N+]=[N-])C(=O)OC(C)C
assay,system,conditions,scale,metabolite peak intensity
"UPLC-MS/MS metabolomics, item: N-acetylserine","C57BL/6 CES1-/- mice, EL4 tumour, EL4 tumour","0.3 mg/kg/day DON equivalent, normalised to tissue mass",higher = more metabolite,3.69e+07 a.u. and 3.21e+07 a.u. and 2.99e+07 a.u. and 3.84e+07 a.u. and 2.14e+07 a.u. and 2.95e+07 a.u.
"UPLC-MS/MS, item: isovalerylglycine","EL4, C57BL/6 CES1-/- mice, EL4 tumour, tumour","0.3 mg/kg/day DON equivalent, normalised to tissue mass",higher = more metabolite,130000 a.u. and 154000 a.u. and 62600 a.u. and 81000 a.u. and 162000 a.u. and 124000 a.u.
"UPLC-MS/MS metabolomics, item: N-acetyltaurine","C57BL/6 CES1-/- mice, EL4 tumour, EL4 tumour","0.3 mg/kg/day DON equivalent, normalised to tissue mass",higher = more metabolite,1.52e+06 a.u. and 1.05e+06 a.u. and 1.84e+06 a.u. and 2.18e+06 a.u. and 1.39e+06 a.u. and 1.9e+06 a.u.
"LC-MS/MS metabolomics, item: methylphosphate","C57BL/6 CES1-/- mice, EL4 tumour, EL4 tumour",0.3 mg/kg/day DON equivalent,higher = more metabolite,1.02e+06 a.u. and 838000 a.u. and 606000 a.u. and 894000 a.u. and 764000 a.u. and 819000 a.u.
"UPLC-MS/MS, item: isocitrate","EL4, C57BL/6 CES1-/- mice, EL4 tumour, tumour","0.3 mg/kg/day DON equivalent, normalised to tissue mass",higher = more metabolite,2.69e+07 a.u. and 1.66e+07 a.u. and 2.12e+07 a.u. and 2.89e+07 a.u. and 2.53e+07 a.u. and 2.82e+07 a.u.
"LC-MS/MS, item: N-acetylmethionine sulfoxide","C57BL/6 CES1-/- mice, EL4 tumour",0.3 mg/kg DON equivalent,,8.87e+06 a.u. and 1.62e+07 a.u. and 9.68e+06 a.u. and 1.49e+07 a.u. and 9.8e+06 a.u. and 1.07e+07 a.u.
"UPLC-MS/MS, item: 4-hydroxyglutamate","C57BL/6 CES1-/- mice, EL4 tumour, EL4 tumour",0.3 mg/kg/day DON equivalent,,1.11e+06 a.u. and 809000 a.u. and 1.04e+06 a.u. and 257000 a.u. and 293000 a.u. and 1.35e+06 a.u.
"LC-MS/MS metabolomics, item: 3-sulfo-L-alanine","C57BL/6 CES1-/- mice, EL4 tumour, EL4 tumour","0.3 mg/kg/day DON equivalent, normalised to tissue mass",higher = more metabolite,6.32e+06 a.u. and 5.44e+06 a.u. and 3.25e+06 a.u. and 6.2e+06 a.u. and 7.32e+06 a.u. and 3.88e+06 a.u.

# Set 4 — effect on: enzyme activity; action: inhibitor; concentration: 0.5 µM; relative to: control
# Target: Serine/threonine-protein kinase OSR1 (OXSR1, Homo sapiens, UniProt O95747)
# UniProt O95747, sequence (whole entry, looked up): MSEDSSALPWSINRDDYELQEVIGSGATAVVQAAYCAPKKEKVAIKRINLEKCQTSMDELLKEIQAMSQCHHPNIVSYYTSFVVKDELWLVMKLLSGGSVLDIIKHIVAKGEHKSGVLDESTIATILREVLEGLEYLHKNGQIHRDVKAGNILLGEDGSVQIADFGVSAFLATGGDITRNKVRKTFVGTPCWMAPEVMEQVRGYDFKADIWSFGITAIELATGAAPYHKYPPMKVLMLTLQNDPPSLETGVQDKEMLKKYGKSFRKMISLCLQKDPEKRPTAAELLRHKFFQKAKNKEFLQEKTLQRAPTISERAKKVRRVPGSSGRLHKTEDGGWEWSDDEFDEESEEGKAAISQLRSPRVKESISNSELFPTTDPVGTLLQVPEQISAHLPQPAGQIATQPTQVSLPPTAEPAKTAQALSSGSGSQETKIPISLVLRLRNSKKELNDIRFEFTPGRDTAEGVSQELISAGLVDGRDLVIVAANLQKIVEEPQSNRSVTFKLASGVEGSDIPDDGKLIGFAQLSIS
Compound,remaining activity [%]
COc1cc2c(cc1OC)-c1[nH]nc(Nc3cccc(F)c3)c1C2,121
CCN(CC)C(=O)c1ccc(Nc2nc(OCC3CCCCC3)c3[nH]cnc3n2)cc1,99
O=c1cc(-c2cccc3c2Sc2ccccc2S3)oc(N2CCOCC2)c1,96.1
O=C1c2ccccc2-c2n[nH]c3cccc1c23,97.4
O=C1C(Cl)=C(N2C(=O)CCC2=O)C(=O)c2ccccc21,108
Cc1cc2ncc(-c3ccccc3)nc2cc1C,85.6
O=C(Nc1cccc(Nc2nccc(Nc3cccc(C(F)(F)F)c3)n2)c1)C1CC1,78.9
CN([C@@H](Cc1ccc(OS(=O)(=O)c2cccc3cnccc23)cc1)C(=O)N1CCN(c2ccccc2)CC1)S(=O)(=O)c1cccc2cnccc12,101
Cn1nc2c3c(cccc31)C(=O)c1ccccc1-2,102
COc1cc2ncnc(Nc3cccc(Cl)c3)c2cc1OC,92
CCOc1nc(NC(=O)Cc2cc(OC)ccc2OC)cc(N)c1C#N,104
Ic1cccc(CSc2nnc(-c3ccncc3)o2)c1,105
O=C(NC(NC(=S)Nc1ccc(F)c([N+](=O)[O-])c1)C(Cl)(Cl)Cl)C(c1ccccc1)c1ccccc1 (centres unmarked),98.3
c1ccc(-c2cnc(Nc3ccc(OCCN4CCCC4)cc3)s2)cc1,85.3
CCN(CC)CCNC(=O)c1c(C)[nH]c(/C=C2\C(=O)Nc3ccc(Cl)cc32)c1C,80.1
Cc1cn(-c2cc(NC(=O)c3ccc(C)c(Nc4nccc(-c5cccnc5)n4)c3)cc(C(F)(F)F)c2)cn1,105
COc1cc2ncnc(Nc3ccc(O)c(Br)c3)c2cc1OC,98.8
N#Cc1c(NC(=O)c2cccc3ccccc23)sc2c1CCCC2,103
Cc1nc2cc3nc(-c4cccs4)cnc3cc2n1C,99.4
c1ccc(-c2[nH]ncc2-c2ccnc3ccccc23)nc1,85.3
N#C/C(=C\c1ccc(O)c(O)c1)C(=O)NCc1ccccc1,101
CCN(CC)CCNC(=O)c1c(C)[nH]c(/C=C2\C(=O)Nc3ccc(F)cc32)c1C,105
Nc1cccc(-c2cc3c(Oc4cccc(O)c4)ncnc3[nH]2)c1,119
CN(C)C[C@H]1CCn2c(c(C3=C(c4cn(C)c5ccccc45)C(=O)NC3=O)c3ccccc32)C1,98.4

# Repeated from above (set 2):
target,assay,remaining binding
"TESK1 (Homo sapiens, UniProt Q15569)","cell-free assay, competition with immobilised ligand",100%
"PRKCQ (Homo sapiens, UniProt Q04759)","cell-free assay, competition with immobilised ligand",91%
"ACVRL1 (Homo sapiens, UniProt P37023)","cell-free assay, competition with immobilised ligand",94%
"Tyrosine-protein kinase ABL1, non-phosphorylated (ABL1, Homo sapiens, UniProt P00519, F317I)","binding, competition with immobilised ligand",100%
"MAK (Homo sapiens, UniProt P20794)","cell-free assay, competition with immobilised ligand",85%
